Assay results from different studies.
Each numbered part is a random draw from the data of one study; scales do not carry over between parts. Substitutions count along the parent as printed.

Study 1 — technique: RNA Bind-n-Seq; form: RNA; medium: in vitro; tested at: 1 µM; setting: whole 134-nt RNA, ends assumed; added: 150 mM KCl; reference: input library; direction: higher = stronger binding
Target: Ras GTPase-activating protein-binding protein 1, C-terminal RGG region (G3BP1, Homo sapiens, UniProt Q13283)
Sequence of UniProt Q13283 (whole entry, looked up): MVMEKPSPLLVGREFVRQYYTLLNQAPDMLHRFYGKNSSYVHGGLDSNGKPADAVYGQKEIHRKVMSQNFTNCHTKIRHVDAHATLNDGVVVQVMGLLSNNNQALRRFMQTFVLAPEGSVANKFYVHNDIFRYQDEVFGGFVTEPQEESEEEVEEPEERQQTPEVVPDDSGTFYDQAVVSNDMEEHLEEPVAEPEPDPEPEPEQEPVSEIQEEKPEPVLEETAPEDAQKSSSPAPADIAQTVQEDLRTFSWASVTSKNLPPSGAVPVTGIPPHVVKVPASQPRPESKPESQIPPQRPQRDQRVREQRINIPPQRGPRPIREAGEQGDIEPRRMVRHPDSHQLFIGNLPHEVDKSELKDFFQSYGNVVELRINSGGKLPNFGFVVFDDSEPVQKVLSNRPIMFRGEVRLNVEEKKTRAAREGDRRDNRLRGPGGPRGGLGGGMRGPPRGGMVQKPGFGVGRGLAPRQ
All sequences stand within: GGGAGUUCUACAGUCCGACGAUC … UGGAAUUCUCGGGUGUCAAGG
Sequence	log2 enrichment
GCUGUUGGAGUGGAUCCGCCGCACAAUCCCGUGGCUGGAGAACCGGGUGCCCGAGAACACCAUGCAUGCCAUGCAACAGAAGCUGGAGGA	-2.2
AGUCCUGUGCUACACAUCGUAUGUACCGAAUCGGGAGGGUUUUUUUGGGUUUUUGGGAAAGUAUUAUGUUACGCCGUUCGGAUCUGCACU	-0.526
UAACUUUAGAGGAGGAUCUGAUGGAUAUGGCAGUGGACGUGGAUUUGGGGAUGGCUAUAAUGGGUAUGGAGGAGGACCUGAAGGUGGCAA	-1.08
AGUCCUGUGCUACACAUCGUAUGUACCGAAUCGGGAAAAAAAGGGAGGGAAAAAGGGAAAGUAUUAUGUUACGCCGUUCGGAUCUGCACU	0.711
UGGGAGGUGGAUUUUGUUUAUUUUUUUAGCUCAUUUCCAGGGGGGGGAAUUUUUUUUUAAUAUGUGUCAUGAAUAAAGUUGUUUUUGAAA	2.9
AGUCCUGUGCUACACAUCGUAUGUACCGAAUCGGGGUUUUGGGGUUUUGGGGUUUUGGAAAGUAUUAUGUUACGCCGUUCGGAUCUGCAC	-0.601
CAAGUCCUGUGCUACACAUCGUAUGUACCGAAUCGGGUUUUGGUUUUGGUUUUGGGAAAGUAUUAUGUUACGCCGUUCGGAUCUGCACUU	-1.77
UUUUACUUCUCCGCCAGGUGCUGUGCUCCAUCAUCGCCGGUACCUUGCACUAUCUCUACCUGGCCACCUUGACCUGGAUGCUGCUGGAGG	0.386
UAACUUUAGAGGAGGAUCUGAUGGAUAUGGCAGUGGACGUGGAUUUGGGGAUGGCUAUAAUGGGUAUGGAGGAGGACCUGGAGAUGGCAA	-1.08
CCUGUGCUACACAUCGUAUGUACCGAAUCGGGUUUUUUUGGGUUUUUUUGGGAAAAAGGGAAAGUAUUAUGUUACGCCGUUCGGAUCUGC	-1.92
UGGGCUGGAUGGCUCAGUUCCCCCAGACCUGGACUGGAAGGGCCAGCCACCUGCACCUCCUAAAAAGGGACUGCUGCAGAGACUCUUCAG	-1.21
UCAAGUCCUGUGCUACACAUCGUAUGUACCGAAUCGGGUUGGUUGGGGUUGGGGAAAGUAUUAUGUUACGCCGUUCGGAUCUGCACUUCC	0.555
UAGUCACCUACUGCCACCUUCGAAAAACACGGAGAGCACCUACCCAGAGGAGAAGGUAGAUUUGGAGUAAGCCGCCGUCGACAUAAUUCC	-0.479
UGGCCCUGGUGGCAUGCGGGGAGGAAGAGGUGGCCUCAUGGAUCGUGGUGGUCCCGGUGGAAUGUUCAGAGGUGGCUGUGGUGGAGACAG	3.29

Study 2 — technique: DHFR PCA, deep sequencing; medium: yeast; added: (+)-ABA 0.39 µM; reference: wild-type fitted maximum; direction: higher = stronger binding
Target: ABI1, truncated, D143A, DHFR fusion (Arabidopsis thaliana)
Setting: methotrexate growth selection, single substitutions
Starting sequence: PYL1, truncated, DHFR fusion (Arabidopsis thaliana); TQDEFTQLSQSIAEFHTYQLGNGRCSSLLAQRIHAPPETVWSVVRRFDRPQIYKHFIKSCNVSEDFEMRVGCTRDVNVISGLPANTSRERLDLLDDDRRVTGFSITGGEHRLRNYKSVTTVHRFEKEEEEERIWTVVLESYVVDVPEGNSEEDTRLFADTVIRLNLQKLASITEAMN; partner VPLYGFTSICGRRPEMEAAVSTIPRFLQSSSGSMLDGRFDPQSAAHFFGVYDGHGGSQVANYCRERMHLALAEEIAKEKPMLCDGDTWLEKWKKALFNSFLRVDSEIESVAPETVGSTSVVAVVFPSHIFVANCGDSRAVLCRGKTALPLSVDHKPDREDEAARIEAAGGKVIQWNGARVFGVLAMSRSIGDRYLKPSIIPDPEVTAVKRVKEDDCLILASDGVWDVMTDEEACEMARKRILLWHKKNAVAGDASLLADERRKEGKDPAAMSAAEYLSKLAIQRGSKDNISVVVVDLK
Substitution	relative binding score [%]
M68L	74.7
Q31L	6.96
I105L	-14
E131A	51.4
W134C	57.2
T1F	36.1
D95I	-13.6
K54L	-2.24
N149G	58.8
D92H	-6.61

Study 3 — technique: Sort-seq; measured: YFP reporter; medium: E. coli; setting: PhoQ-PhoP variant library; added: 10 µM Mg2+; reference: high Mg2+ state; direction: higher = stronger signaling
Molecule: PhoQ, residues 284 288 289 292 302 303 GASLAW
target	fold induction
PhoP, residues 12 14 15 18 19 TPWTL (Escherichia coli, UniProt P23836)	0.584
PhoP, residues 12 14 15 18 19 LHHYF (Escherichia coli, UniProt P23836)	13.1
PhoP, residues 12 14 15 18 19 VGHWL (Escherichia coli, UniProt P23836)	2.48
PhoP, residues 12 14 15 18 19 NFFVT (Escherichia coli, UniProt P23836)	18

Study 4 — target: CCNA1, cyclin fold, Cln2 fusion (human); technique: yeast growth competition, sequencing; medium: yeast; setting: strong parent motif; reference: not given; direction: higher = stronger binding
Starting sequence: E2F1 docking peptide (human); PPVKRRLDFETDH; partner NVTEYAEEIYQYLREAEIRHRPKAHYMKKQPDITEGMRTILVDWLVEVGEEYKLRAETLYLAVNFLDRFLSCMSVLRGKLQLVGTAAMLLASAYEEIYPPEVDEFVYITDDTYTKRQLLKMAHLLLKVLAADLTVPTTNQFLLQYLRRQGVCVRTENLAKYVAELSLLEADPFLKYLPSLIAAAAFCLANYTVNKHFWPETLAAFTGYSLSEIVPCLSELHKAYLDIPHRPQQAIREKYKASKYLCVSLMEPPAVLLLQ
Substitution	normalised enrichment score
PPVKRRLDFEWDH [T11W]	1.78
PPVTRRLDFETDH [K4T]	0.809
PPVKRRLSFETDH [D8S]	1.4
PPVKRRVDFETDH [L7V]	0.524
PPVVRRLDFETDH [K4V]	1.34
PPVKRDLDFETDH [R6D]	0.0601
PPVKRRLMFETDH [D8M]	1.58
PPVKRRLDSETDH [F9S]	0.248
PPVKRRLDFEGDH [T11G]	1.78
PPVKRRLDFGTDH [E10G]	1.96
PPVKRRLRFETDH [D8R]	1.3
PPCKRRLDFETDH [V3C]	1.63
PPVKRRLGFETDH [D8G]	1.36
PPVKRRLDFEPDH [T11P]	1.95
PPVKRPLDFETDH [R6P]	0.444

Some of these lines once more (study 1):
Sequence	log2 enrichment
UAACUUUAGAGGAGGAUCUGAUGGAUAUGGCAGUGGACGUGGAUUUGGGGAUGGCUAUAAUGGGUAUGGAGGAGGACCUGGAGAUGGCAA	-1.08
CCUGUGCUACACAUCGUAUGUACCGAAUCGGGUUUUUUUGGGUUUUUUUGGGAAAAAGGGAAAGUAUUAUGUUACGCCGUUCGGAUCUGC	-1.92
UGGGCUGGAUGGCUCAGUUCCCCCAGACCUGGACUGGAAGGGCCAGCCACCUGCACCUCCUAAAAAGGGACUGCUGCAGAGACUCUUCAG	-1.21
UCAAGUCCUGUGCUACACAUCGUAUGUACCGAAUCGGGUUGGUUGGGGUUGGGGAAAGUAUUAUGUUACGCCGUUCGGAUCUGCACUUCC	0.555
UAGUCACCUACUGCCACCUUCGAAAAACACGGAGAGCACCUACCCAGAGGAGAAGGUAGAUUUGGAGUAAGCCGCCGUCGACAUAAUUCC	-0.479
